Measurements from different studies.
Protocols differ between the studies behind these lines. Numbers after ± are the reported error.

CN1CCCNC(=O)c2cccc(c2)C(=O)NCCCN(C)CCCNc2cccc3c2C(=O)c2cccc(c2C3=O)NCCC1
ALT (nude mice, serum; dose not given, 10 days): 29 ± 4.1 U/L

C[N+](C)(CCOCCOCCOCCNC(=S)Nc1ccc(C[C@H]2CN(CC(=O)[O-])CCN(CC(=O)[O-])CCN2CC(=O)[O-])cc1)C[c-]1cccc1.[64Cu+2].[Fe+2].c1cc[cH-]c1
tumour uptake (pretargeted PET; nude mouse, BxPC-3 xenograft; 8 h post-radioligand, 216 h lag time): 2.6 ± 0.2 %ID/mL

CNCc1ccc(-c2cc(=O)c3ccc4[nH]c(C(F)(F)F)nc4c3o2)cc1
t1/2 (ICR mice, plasma; intravenous, 2 mg/kg): 0.84 h

CC(C)(O)c1ncc([S@](N)(=O)=NC(=O)Nc2c3c(cc4c2CCC4)CCC3)s1
subjects with TEAEs (item: investigations; healthy human; oral, 100 mg, CS formulation, fasted): 20%

C=C(NC(=O)c1csc(-c2nc3c(cc2O)-c2nc(cs2)C(=O)NC(C(C)O)C(=O)NC(=C(C)OC)c2nc(cs2)C(=O)NC2c4nc(cs4)C(=O)NC(COC(=O)c4c5c6c(cccc6n4O)COC(=O)C(OC4CC(C)(O)C(N(C)C)C(C)O4)C2OC5)c2nc-3cs2)n1)C(N)=O (stereo not drawn)
Tmax (cynomolgus monkey, female, plasma; intravenous infusion, 3 mg/kg multiple doses, day 7): 3.6 min

C=CC(=O)Nc1cc(Nc2nccc(-c3cn(C)c4ccccc34)n2)c(OC)cc1N(C)CCNC
recovery (storage stability; human dried blood spot; 2 h, -80 °C, MQC level): 96.1%

Cc1nc(N)nc2c1C(=O)N[C@@H](c1ccc(F)cc1-c1cccc(O[11CH3])n1)C2
tracer uptake (ex vivo biodistribution; healthy mice, urine; 60 min post-injection, baseline, vehicle pre-treatment): 0.4 ± 0.2 %ID

Cc1cccc(Cn2ncc3c4cc(F)c(CN(C)C)cc4n(C)c3c2=O)n1
plasma concentration (Dutch-belted rabbit, plasma; intravitreal, 100 µM vitreous, 0.04 days): 3.32 ng/mL

Cc1ccc(CN2C(=O)/C(=N\c3ccc(Cl)cc3Br)c3ccccc32)cc1
granulocytes (mouse, blood; 100 mg/kg): 48 ± 6%

O=C(c1ccccc1)N1C(c2ccc(OCC3CCN(CCCF)C3)cc2)c2ccc(O)cc2CC12CC2 (stereo not drawn)
MRT(0-inf) (C57BL/6J mouse, plasma; intraperitoneal, 25 mg/kg, group mean): 2.2 h

O=C(Nc1cnccc1-c1ccc([18F])cc1)c1ccnc(NC(=O)C2CC2)c1
SUV (ex vivo gamma counting; GSK-3β transgenic mice, late-stage, spleen; intravenous, 120 min, mean, P-gp inhibitor pretreatment, added: tariquidar 15 mg/kg iv): 0.45

CCCC[C@H](NC(=O)CNC(=O)CNC(=O)[C@H](CCCCNC(=O)C(C)c1ccc(CC(C)C)cc1)NC(=O)CN1CCN(CC(=O)O)CCN(CC(=O)O)CCN(CC(=O)O)CC1)C(=O)N[C@H]1CC(=O)NCCCC[C@@H](C(N)=O)NC(=O)[C@H](Cc2c[nH]c3ccccc23)NC(=O)[C@H](CCCNC(=N)N)NC(=O)[C@@H](Cc2ccccc2)NC(=O)[C@H](Cc2c[nH]cn2)NC1=O (stereo partly drawn) [lutetium-177 labelled]
tumour-to-tissue ratio (C57 mice, tumour; 2 h; reference: muscle): 49.4

O=C(Nc1cnccc1-c1ccc([18F])nc1)c1ccnc(NC(=O)C2CC2)c1
SUV (mice, transgenic, GSK-3β, early-stage, bone; intravenous, dose not given, 120 min, added: tariquidar 15 mg/kg i.v. pre-dose): 0.224

CN(CCCO)Cc1ccc(-c2noc(-c3ccc(OCC[18F])c(C(F)(F)F)c3)n2)cc1F
tissue uptake (Sprague-Dawley rats, male, lung; 5 min post-injection): 9.32 ± 0.94 %ID/g

O=C(NS(=O)(=O)c1cccs1)c1cc2ccccc2n1Cc1ccc(Br)c2ccccc12
MRT(0-inf) (mouse, plasma; oral, 1 mg/kg): 1.09 h

C[C@H](C(=O)O)c1ccc(-c2ccccc2)c(F)c1
relative change of HPLC peak area (HPLC; solution; concentration not given, 10 h, room temperature): 1.27%

COc1ccnc(C(=O)N[C@H]2COC(=O)[C@H](Cc3ccccc3)[C@@H](OC(=O)C(C)C)[C@H](C)OC2=O)c1O
DT50 (aerobic dark soil incubation; clay soil; 20 °C, modelling endpoint): 227 days

C#CCNC(=O)C(CC(C)(C)F)NC(c1ccc(-c2ccc(S(C)(=O)=O)cc2)cc1)C(F)(F)F (stereo not drawn)
cysteine adduct formation (MES buffer; 100 µM, 23 h, pH 5.5, 37 °C, added: cysteine 10 mM): < 1%

C=Cc1c(C)c2cc3nc(c(CC(=O)OCCOCCOCCOC)c4[nH]c(cc5nc(cc1[nH]2)C(C)=C5CC)c(C)c4C(=O)OCCOCCOCCOC)[C@@H](CCC(=O)OCCOCCOCCOC)[C@@H]3C
compound loss (LC-MS; methanol-water 9:1; 4 h, pH 2.0): 100%

C=CC(=O)Nc1cc(Nc2nccc(-c3cn(C4CC4)c4ccccc34)n2)c(OC)cc1N(C)CCNC
relative error (long-term storage stability; rat plasma; 1 ng/mL, 3 weeks, -80 °C; reference: nominal concentration): 0.6%

COCC1CN(C2CCN(c3cc(OC)c(Nc4ncc(Br)c(Nc5ccc6c(c5P(C)(C)=O)OCCO6)n4)cc3C)CC2)C1
AUC (human, plasma; oral, 60 mg, multiple doses, patients): 16000 ng·h/mL

CCCCN1C(=O)c2cccc3c(NCCCCCCN4CCOCC4)ccc(c23)C1=O
fluorescence lifetime (acetonitrile): 10.4 ns

COc1cc(C)c(C(N)=O)cn1
hepatocyte CLint (metabolic stability; human, hepatocytes; 1 µM, pH 7.4): 21 µL/min/10⁶ cells

CC(C)(C)C(=O)Nc1ccc2[nH]c(CN3CCC(N(CCCN4CCOCC4)CC4OC(n5cnc6c(N)ncnc65)C(O)C4O)CC3)nc2c1 (stereo not drawn)
concentration (male Sprague-Dawley rat, plasma; intraperitoneal, 20 mg/kg, 15 min): 2140 ng/mL

COc1cccc(OC)c1-c1cc(C(=O)NC2(C(=O)O)C3CC4CC(C3)CC2C4)nn1-c1ccc(C(=O)N(C)CCOCCOCCN(C)C(=O)[C@H](CCCCNC(=O)[C@H](CC(C)C)NC(=O)C2OC2C(=O)O)NC(=O)CN2CCN(CC(=O)[O-])CCN(CC(=O)[O-])CCN(CC(=O)[O-])CC2)cc1C(C)C.[177Lu+3] (mixture of isomers)
tissue uptake (mouse, HT-29 xenograft, liver; 4 h post injection): 1.78 %ID/g

O=C([O-])CN1CCN(CC(=O)[O-])CCN(C(CO)C(O)CO)CCN(CC(=O)[O-])CC1.[Dy+3] (stereo not drawn)
elimination half-life (female cynomolgus monkey, plasma; intravenous, dose not given): 1.09 h

NCCCC[C@H](NC(=O)[C@H](Cc1c[nH]c2ccccc12)NC(=O)[C@H](Cc1c[nH]c2ccccc12)NC(=O)[C@@H](N)Cc1c[nH]c2ccccc12)C(N)=O
vesicle-associated concentration (Trp fluorescence; DOPC unilamellar vesicles; 120 min, pH 7.2): ~300 µM

Excerpt of the above:
COc1cccc(OC)c1-c1cc(C(=O)NC2(C(=O)O)C3CC4CC(C3)CC2C4)nn1-c1ccc(C(=O)N(C)CCOCCOCCN(C)C(=O)[C@H](CCCCNC(=O)[C@H](CC(C)C)NC(=O)C2OC2C(=O)O)NC(=O)CN2CCN(CC(=O)[O-])CCN(CC(=O)[O-])CCN(CC(=O)[O-])CC2)cc1C(C)C.[177Lu+3] (mixture of isomers)
tissue uptake (mouse, HT-29 xenograft, liver; 4 h post injection): 1.78 %ID/g

CC(C)(O)c1ncc([S@](N)(=O)=NC(=O)Nc2c3c(cc4c2CCC4)CCC3)s1
subjects with TEAEs (item: investigations; healthy human; oral, 100 mg, CS formulation, fasted): 20%

NCCCC[C@H](NC(=O)[C@H](Cc1c[nH]c2ccccc12)NC(=O)[C@H](Cc1c[nH]c2ccccc12)NC(=O)[C@@H](N)Cc1c[nH]c2ccccc12)C(N)=O
vesicle-associated concentration (Trp fluorescence; DOPC unilamellar vesicles; 120 min, pH 7.2): ~300 µM
